Measurements pooled from the literature.
Numbers after ± are the reported error. ≈ marks a conversion by molar mass, not a printed value.
TDP1: Tyrosyl-DNA phosphodiesterase 1 (TDP1, Homo sapiens, UniProt Q9NUW8)
UniProt Q9NUW8, sequence (whole entry, looked up): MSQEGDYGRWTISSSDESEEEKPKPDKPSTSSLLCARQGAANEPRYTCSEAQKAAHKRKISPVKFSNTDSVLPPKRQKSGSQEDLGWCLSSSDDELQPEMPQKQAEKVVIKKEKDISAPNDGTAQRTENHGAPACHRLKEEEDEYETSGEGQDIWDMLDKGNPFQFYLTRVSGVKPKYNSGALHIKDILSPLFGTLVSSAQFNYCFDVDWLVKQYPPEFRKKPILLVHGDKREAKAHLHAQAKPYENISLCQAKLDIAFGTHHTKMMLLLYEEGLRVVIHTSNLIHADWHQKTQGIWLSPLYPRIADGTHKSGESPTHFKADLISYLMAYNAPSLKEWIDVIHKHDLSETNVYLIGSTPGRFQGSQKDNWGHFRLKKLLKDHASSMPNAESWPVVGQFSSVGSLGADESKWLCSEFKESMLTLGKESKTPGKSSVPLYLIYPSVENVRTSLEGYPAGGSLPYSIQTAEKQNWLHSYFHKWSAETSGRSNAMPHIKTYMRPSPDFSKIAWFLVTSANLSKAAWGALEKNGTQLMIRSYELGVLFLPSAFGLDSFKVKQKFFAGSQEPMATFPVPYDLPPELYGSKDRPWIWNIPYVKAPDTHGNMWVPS

For Cc1nc(N)nc2c1C(=O)N[C@@H](c1ccc(F)cc1-c1cccc(O[11CH3])n1)C2, the SUV was 2.3 ± 0.2 (ex vivo biodistribution; healthy mice, liver; 60 min post-injection, baseline, vehicle pre-treatment).
COc1cc2ncnc(Oc3ccc(Nc4nccc5[nH]cc(-c6ccc(F)cc6)c(=O)c45)cc3F)c2cc1OC gave a Cmax of 5670 ng/mL (male beagle dog, plasma; oral, 4 mg/kg).
With C=C(NC(=O)c1csc(-c2nc3c(cc2O)-c2nc(cs2)C(=O)NC(C(C)O)C(=O)NC(=C(C)OC)c2nc(cs2)C(=O)NC2c4nc(cs4)C(=O)NC(COC(=O)c4c5c6c(cccc6n4O)COC(=O)C(OC4CC(C)(O)C(N(C)C)C(C)O4)C2OC5)c2nc-3cs2)n1)C(N)=O (centres unmarked) the AUC(0-inf) was 1330 ng·h/mL (ICR mice, Streptococcus pneumoniae ATCC 49169 infected, immunocompromised, blood; intravenous, 16 mg/kg/day twice daily).
CCCCN1C(=O)c2cccc3c(NCCCCN4CCOCC4)ccc(c23)C1=O gave an emission maximum of 498 nm (toluene).
CC(=O)N([O-])CCCCCNC(=O)CCC(=O)N([O-])CCCCCNC(=O)CCC(=O)N([O-])CCCCCN.[89Zr+4] has a tracer uptake of 6.64 %ID/g (mouse, kidney; 1 h).
For CC[C@H](C)[C@@H]1NC(=O)[C@H](Cc2ccc(O)cc2)NC(=O)CCSCc2cccc(c2)CSCCNC(=O)[C@H](Cc2c[nH]cn2)NC(=O)[C@H](Cc2ccc(O)cc2)NC(=O)[C@H](CC(=O)O)NC(=O)[C@H](Cc2ccc(O)cc2)NC(=O)[C@H](CC(C)C)NC(=O)[C@H](CCCNC(=N)N)NC1=O, the membrane retention was < -0.08% (PAMPA; 200 µM, 5 h, pH 7.4).
CCCCN1C(=O)c2cccc3c(NCCCCCCCCCCN4CCOCC4)ccc(c23)C1=O gave an emission maximum of 535 nm (DMSO).
Cc1[nH]c(=O)c(CNC(=O)c2cc(Cl)c3c(c2C)O[C@@](C)([C@H]2CC[C@H](N(C)C)CC2)O3)c(C)c1O has an excretion of 0.79% (healthy men, urine; oral, 200 mg [14C]-valemetostat, 0 to 48 h; baseline: dose).
With Cc1noc(C)c1Cn1cc(N2C(=O)CN(Cc3cccc(O[C@@H]4O[C@H](C(=O)O)[C@@H](O)[C@H](O)[C@H]4O)c3)C2=O)cn1 the plasma concentration was 9090 ng/mL (Sprague-Dawley rat, male; oral, 100 mg/kg of parent drug, 0.5 h).
CCc1cnc(NC(=O)c2cc(S(=O)(=O)N3CCOCC3)ccc2N(C)C2CCCC2)s1: “Basophils absolute count” 0 µL⁻¹ (mouse, blood; 10 mg/kg, 3 doses).
For CC(C)(O)c1ncc([S@](N)(=O)=NC(=O)Nc2c3c(cc4c2CCC4)CCC3)s1, the stability time was ≥ 2 h (human whole blood; wet ice and room temperature).
CCCN(C)c1cc(C(F)(F)F)nc(SCCC(=O)NCc2ccco2)n1: “terminal elimination rate constant” 0.000177 s⁻¹ (male Wistar rat, plasma; intraperitoneal, 25 mg/kg).
With COc1cccc(OC)c1-c1cc(C(=O)NC2(C(=O)O)C3CC4CC(C3)CC2C4)nn1-c1ccc(C(=O)N(C)CCCN(C)C(=O)[C@H](CCCCNC(=O)[C@H](CC(C)C)NC(=O)C2OC2C(=O)O)NC(=O)CN2CCN(CC(=O)[O-])CCN(CC(=O)[O-])CCN(CC(=O)[O-])CC2)cc1C(C)C.[177Lu+3] (mixture of isomers) the tumour-to-pancreas ratio was 11.2 (mouse HT-29 xenograft; 4 h, biodistribution; baseline: tumour over pancreas).
O=C(O)c1ccc(Nc2c(-c3ccccc3)nc3ccc(CON=Cc4cccc(NC(=O)c5ccc(Cl)cc5)c4)cn23)cc1 gave an inhibition of 0.2% (TDP1; enzyme activity, inhibitor; 100 µM, unpurified compound).
With O=S1(=O)CC2CCCCC2CS1 (centres unmarked) the solubility was 118 mM (≈ 24.3 mg/mL) (phase solubility, NMR; water; 25 °C, with: hydroxypropyl-β-cyclodextrin 1036 mM).
N#CSCc1ccc(C=NOCc2ccc3nc(-c4ccccc4)c(Nc4ccc(C(=O)O)cc4)n3c2)o1 gave an inhibition of 91.2% (TDP1; enzyme activity, inhibitor; 100 µM, unpurified compound).
O=C(Nc1cnccc1-c1ccc([18F])cc1)c1ccnc(NC(=O)C2CC2)c1 gave an SUV of 0.47 (FVB/NJ mice, both sexes, brain; intravenous, 15 min, median, P-gp inhibitor pretreatment, with: tariquidar 15 mg/kg iv).

For quick reference, copied from above:
With C=C(NC(=O)c1csc(-c2nc3c(cc2O)-c2nc(cs2)C(=O)NC(C(C)O)C(=O)NC(=C(C)OC)c2nc(cs2)C(=O)NC2c4nc(cs4)C(=O)NC(COC(=O)c4c5c6c(cccc6n4O)COC(=O)C(OC4CC(C)(O)C(N(C)C)C(C)O4)C2OC5)c2nc-3cs2)n1)C(N)=O (centres unmarked) the AUC(0-inf) was 1330 ng·h/mL (ICR mice, Streptococcus pneumoniae ATCC 49169 infected, immunocompromised, blood; intravenous, 16 mg/kg/day twice daily).
CCCCN1C(=O)c2cccc3c(NCCCCN4CCOCC4)ccc(c23)C1=O gave an emission maximum of 498 nm (toluene).
